Assay results from different studies.
Each line is one published result; not all experiments were run side by side. ± marks the error that the study gave.

CCCC[C@H](NC(=O)CN1CCC(NC(=O)CN2CCN(CC(=O)O)CCN(CC(=O)O)CCN(CC(=O)O)CC2)CC1)C(=O)N[C@H]1CC(=O)NCCCC[C@@H](C(N)=O)NC(=O)[C@H](Cc2c[nH]c3ccccc23)NC(=O)[C@H](CCCNC(=N)N)NC(=O)[C@@H](Cc2ccccc2)NC(=O)[C@H](Cc2c[nH]cn2)NC1=O [gallium-68 labelled]  tumour to kidney ratio (biodistribution; C57BL/6J mouse male tumour-bearing; 1 h post injection, unblocked; baseline: tumour over kidney): 2.7 ± 0.9
CSc1cc(C)[nH]c(=O)c1CN1CCc2c(Cl)c3c(c(C)c2C1=O)OC(C)(C1CCC(N(C)C)CC1)O3 (stereo not shown)  tumour concentration (female CB-17 SCID mouse, KARPAS-422 xenograft, tumour; oral, 25 mg/kg once daily, 1 h post dose on day 12): 350 ng/g
N=C(N)NCCC[C@@H]1NC(=O)[C@H](CCCCNC(=O)CC[C@H](NC(=O)CC[C@H](NC(=O)CN2CCN(CC(=O)O)CCN(CC(=O)O)CCN(CC(=O)O)CC2)C(=O)N[C@@H](CCC(=O)NCCCC[C@@H]2NC(=O)[C@@H](Cc3ccccc3)NC(=O)[C@H](CC(=O)O)NC(=O)CNC(=O)[C@H](CCCNC(=N)N)NC2=O)C(=O)NCCCC[C@@H]2NC(=O)[C@@H](Cc3ccccc3)NC(=O)[C@H](CC(=O)O)NC(=O)CNC(=O)[C@H](CCCNC(=N)N)NC2=O)C(=O)NCCCC[C@@H]2NC(=O)[C@@H](Cc3ccccc3)NC(=O)[C@H](CC(=O)O)NC(=O)CNC(=O)[C@H](CCCNC(=N)N)NC2=O)NC(=O)[C@@H](Cc2ccccc2)NC(=O)[C@H](CC(=O)O)NC(=O)CNC1=O [gallium-68 labelled]  tumour uptake (female nude BALB/c mouse, SK-RC-52 xenograft, tumour; intravenous, 2 h): 7.11 ± 0.67 %ID/g
CN1C(=O)[C@@H](Cc2ccc(O)cc2)NC(=O)CNC(=O)[C@H](Cc2ccc3ccccc3c2)NC(=O)[C@H](CCCNC(=N)N)NC(=O)[C@H]1CCCNC(=O)c1ccc(CNC(=O)CN2CCN(CC(=O)O)CCN(CC(=O)O)CCN(CC(=O)O)CC2)cc1 [gallium-68 labelled]  tumour uptake (mouse, CB-17 SCID, female, Daudi xenograft, tumour; intravenous, 0.05 nmol, 90 min): 16.2 %ID/g
CCCC[C@H](NC(=O)CNC(=O)CNC(=O)CN1CCN(CC(=O)O)CCN(CC(=O)O)CCN(CC(=O)O)CC1)C(=O)N[C@H]1CC(=O)NCCCC[C@@H](C(N)=O)NC(=O)[C@H](Cc2c[nH]c3ccccc23)NC(=O)[C@H](CCCNC(=N)N)NC(=O)[C@@H](Cc2ccccc2)NC(=O)[C@H](Cc2c[nH]cn2)NC1=O [gallium-67 labelled]  tumour to kidney ratio (female C57 mouse B16/F1 melanoma; intravenous, 0.037 MBq, 2 h): 2.87
CC[C@H](C)[C@H](NC(=O)[C@H](C)NC(=O)[C@H](CC(C)C)NC(=O)[C@H](Cc1ccc(O)c(I)c1)NC(C)=O)C(=O)NCCCCCC(=O)N1CCC[C@H]1C(=O)N[C@@H](C)C(=O)N[C@@H](CC(=O)O)C(=O)N[C@@H](CCC(=O)O)C(=O)N[C@H](C(=O)N[C@@H](CC(=O)O)C(=O)NCC(=O)N[C@@H](CCCNC(=N)N)C(=O)N[C@@H](CCCNC(=N)N)C(=O)N[C@@H](CCCNC(=N)N)C(=O)N[C@@H](CCCN)C(=O)N[C@@H](CCCNC(=N)N)C(=O)N[C@@H](CCCNC(=N)N)C(=O)N[C@@H](CCCCN)C(=O)N[C@@H](CCCCN)C(=O)N[C@@H](CCCNC(=N)N)C(=O)N[C@@H](CCCCNC(=O)CN1CCN(CC(=O)O)CCN(CC(=O)O)CCN(CC(=O)O)CC1)C(N)=O)C(C)C [iodine-125 labelled]  tumour to tissue ratio (female BALB/c mouse, orthotopic 4T1 tumour, tumour over muscle; intravenous, 0.185 MBq, 1 h): 2.2 ± 0.1
CC(F)C(=O)NC[C@@H]1O[C@H](C(=O)NCCCC[C@@H]2NC(=O)[C@@H](Cc3ccccc3)NC(=O)[C@H](CC(=O)O)NC(=O)CNC(=O)[C@H](CCCNC(=N)N)NC2=O)[C@H](O)[C@H](O)[C@H]1O (stereo partly shown) [fluorine-18 labelled]  tumour uptake (microPET imaging; female athymic nude mouse, U-87 MG xenograft, U-87 MG tumour; intravenous, 3.7 MBq, 2 h post-injection): 0.9 ± 0.1 %ID/g
CCCC[C@H](NC(=O)CNC(=O)CNC(=O)CN1CCN(CC(=O)O)CCN(CC(=O)O)CCN(CC(=O)O)CC1)C(=O)N[C@H]1CC(=O)NCCCC[C@@H](C(N)=O)NC(=O)[C@H](Cc2c[nH]c3ccccc23)NC(=O)[C@H](CCCNC(=N)N)NC(=O)[C@@H](Cc2ccccc2)NC(=O)[C@H](Cc2c[nH]cn2)NC1=O [indium-111 labelled]  tumour to skin uptake ratio (C57 mouse, B16/F1 melanoma; 0.5 h; baseline: tumour over skin): 8.51
O=C(O)CCC(NP(=O)(O)OCCC[C@@H](NC(=O)CC[C@H](NC(=O)CCCCCNC(=O)c1ccc([18F])cc1)C(=O)O)C(=O)O)C(=O)O (stereo partly shown)  tumour to blood ratio (mouse, CWR22Rv1 xenograft; dose not given, 1 h; baseline: tumour over blood): 22 ± 4.17
CC(F)C(=O)NCCOCCOCCOCC(=O)N[C@@H](CCC(=O)NCCCC[C@@H]1NC(=O)[C@@H](Cc2ccc(O)cc2)NC(=O)[C@H](CC(=O)O)NC(=O)CNC(=O)[C@H](CCCNC(=N)N)NC1=O)C(=O)NCCCC[C@@H]1NC(=O)[C@@H](Cc2ccc(O)cc2)NC(=O)[C@H](CC(=O)O)NC(=O)CNC(=O)[C@H](CCCNC(=N)N)NC1=O (stereo partly shown) [fluorine-18 labelled]  tumour uptake (microPET imaging; female athymic nude mouse, U-87 MG xenograft, U-87 MG tumour; intravenous, 3.7 MBq, 2 h post-injection): 2.5 ± 0.17 %ID/g
CCCC[C@@H]1NC(=O)[C@@H](NC(=O)[C@H](CCC(=O)O)NC(=O)CNC(=O)CN2CCN(CC(=O)O)CCN(CC(=O)O)CCN(CC(=O)O)CC2)CCCCNC(=O)C[C@@H](C(N)=O)NC(=O)[C@H](C(C)C)NC(=O)[C@@H]2CCCN2C(=O)[C@H](CCCNC(=N)N)NC(=O)CNC(=O)[C@H](Cc2c[nH]c3ccccc23)NC(=O)[C@H](CCCNC(=N)N)NC(=O)[C@@H](Cc2ccccc2)NC(=O)[C@H](Cc2c[nH]cn2)NC(=O)[C@H](CCC(=O)O)NC1=O [gallium-67 labelled]  tumour to skin uptake ratio (C57 mouse, B16/F1 flank melanoma; 2 h post-injection, together with: peptide blockade 10 µg): 9.25
CC(C)C[C@H](NC(=O)C[C@H](O)[C@H](CC(C)C)NC(=O)[C@H](Cc1c[nH]cn1)NC(=O)CNC(=O)[C@@H](NC(=O)[C@H](C)NC(=O)[C@H](Cc1c[nH]c2ccccc12)NC(=O)[C@H](CCC(N)=O)NC(=O)[C@@H](Cc1ccccc1)NC(=O)CCNC(=O)CCNC(=O)CN1CCN(CC(=O)O)CCN(CC(=O)O)CCN(CC(=O)O)CC1)C(C)C)C(N)=O [lutetium-177 labelled]  tumour absorbed dose (MIRD dosimetry; mouse, PC-3 xenograft; intravenous, 50 MBq): 10 Gy
Cc1cc(C)c(-c2[nH]nc(C)c2C)cc1C(=O)N1CC(c2ccc(C#N)cc2)C1  tumour concentration (mass spectrometry; mouse, Calu-6 xenograft, tumour; oral, 60 mg/kg, 6 h after last dose): 5010 ng/g

Some of these lines once more:
CC(F)C(=O)NC[C@@H]1O[C@H](C(=O)NCCCC[C@@H]2NC(=O)[C@@H](Cc3ccccc3)NC(=O)[C@H](CC(=O)O)NC(=O)CNC(=O)[C@H](CCCNC(=N)N)NC2=O)[C@H](O)[C@H](O)[C@H]1O (stereo partly shown) [fluorine-18 labelled]  tumour uptake (microPET imaging; female athymic nude mouse, U-87 MG xenograft, U-87 MG tumour; intravenous, 3.7 MBq, 2 h post-injection): 0.9 ± 0.1 %ID/g
CCCC[C@H](NC(=O)CNC(=O)CNC(=O)CN1CCN(CC(=O)O)CCN(CC(=O)O)CCN(CC(=O)O)CC1)C(=O)N[C@H]1CC(=O)NCCCC[C@@H](C(N)=O)NC(=O)[C@H](Cc2c[nH]c3ccccc23)NC(=O)[C@H](CCCNC(=N)N)NC(=O)[C@@H](Cc2ccccc2)NC(=O)[C@H](Cc2c[nH]cn2)NC1=O [indium-111 labelled]  tumour to skin uptake ratio (C57 mouse, B16/F1 melanoma; 0.5 h; baseline: tumour over skin): 8.51
